# Results pooled from the literature.
# Compare with care: the assays were run in different laboratories. “And” joins repeats or separate records; there may be more than shown. ± gives the spread as reported.
Structure (SMILES),organism,assay,test system,conditions,scale,measurement,result
COc1c(N2C[C@@H]3CCCN[C@@H]3C2)c(F)cc2c(=O)c(C(=O)O)cn(C3CC3)c12,Staphylococcus epidermidis,broth microdilution,methicillin-resistant isolates,,,MBC,8 µg/mL
CNCCN1CCN(c2cnc3c(cc(C(=O)NCc4ccc(Cl)cc4)c(=O)n3CC(=O)N3CC(C)(F)C3)n2)C1=O,human cytomegalovirus,"viral replication, GFP reporter","MRC-5, AD169-GFP",,,EC50,207 nM
CO[C@H]1/C=C/O[C@@]2(C)Oc3c(C)c(O)c4c(c3C2=O)C2=NC3(CCN(CC(C)C)CC3)NC2=C(NC(=O)/C(C)=C\C=C\[C@H](C)[C@H](O)[C@@H](C)[C@@H](O)[C@@H](C)[C@H](OC(C)=O)[C@@H]1C)C4=O,Mycobacteroides abscessus,bacterial growth,subsp. abscessus Bamboo,,,IC50,2740 nM
CC(=Nc1ccc(N=Cc2cnccn2)cc1)N(C)C,Necator americanus,,"infected hamsters, small intestine","oral, 50 mg/kg single, 1 h",,worm count,15.6 ± 2.3
CCOC(=O)c1c(C)nc(NCCNc2ccnc3cc(Cl)ccc23)nc1-c1ccccc1,human cytomegalovirus,viral replication,"HEL, Davis",,,EC50,> 4000 nM
CC(=Nc1ccc(N=Cc2ccc3[nH]ccc3c2)cc1)N(C)C,Necator americanus,,infected hamsters,"oral, 50 mg/kg single",relative to: untreated,worm burden reduction,100%
CC(=O)NC[C@H]1CN(c2ccc(N3CCOCC3)c(F)c2)C(=O)O1,Bifidobacterium longum,,HM-845,,,MIC,< 2.96 µM
Cc1cc(Nc2ccc(S(F)(F)(F)(F)F)cc2)n2nc(C(C)(F)F)nc2n1,Plasmodium falciparum,microscopy,human malaria patients,"250 mg, mean",,lag phase (Tlag),12.6 h
CN[C@H](CC(C)C)C(=O)N[C@H]1C(=O)N[C@@H](CC(N)=O)C(=O)N[C@H]2C(=O)N[C@H]3C(=O)N[C@H](C(=O)N[C@H](C(=O)O)c4cc(O)cc(O)c4-c4cc3ccc4O)[C@H](O)c3ccc(c(Cl)c3)Oc3cc2cc(c3O[C@@H]2O[C@H](CO)[C@@H](O)[C@H](O)[C@H]2O[C@H]2C[C@](C)(N)[C@H](O)[C@H](C)O2)Oc2ccc(cc2Cl)[C@H]1O,Streptococcus pneumoniae,,"-4, penicillin-resistant, mouse systemic infection",intravenous,survival,ED50,21.1 mg/kg
CN[C@H](CC(C)C)C(=O)N[C@H]1C(=O)N[C@@H](CC(N)=O)C(=O)N[C@H]2C(=O)N[C@H]3C(=O)N[C@H](C(=O)N[C@H](C(=O)O)c4cc(O)cc(O)c4-c4cc3ccc4O)[C@H](O)c3ccc(c(Cl)c3)Oc3cc2cc(c3O[C@@H]2O[C@H](CO)[C@@H](O)[C@H](O)[C@H]2O[C@H]2C[C@](C)(N)[C@H](O)[C@H](C)O2)Oc2ccc(cc2Cl)[C@H]1O,Staphylococcus epidermidis,,"9397, female ICR mice, peritonitis, peritoneal fluid",dose not given,,bacterial load,4 log CFU and 6.21 log CFU and 5.76 log CFU and 4.92 log CFU and 3.52 log CFU
COC(=O)[C@H](Cc1c[nH]c2ccccc12)NCc1cc2ccccc2nc1SC,Pseudomonas aeruginosa,,,"128 µg/mL, together with: pentamidine 100 µM",relative to: control,growth,58.6%
CC(=Nc1ccc(N=Cc2ccc[nH]2)cc1)N(C)C,Necator americanus,,infected hamsters,"oral, 25 mg/kg single dose, 49 days post infection",,worm burden reduction,100%
O=S(=O)(c1ccc(Cl)cc1)c1nc(-c2ccccc2)oc1S(=O)(=O)c1ccc(Cl)cc1,human cytomegalovirus,viral replication,"HFF, AD169",,,EC50,140 nM
COC(=O)[C@H](Cc1ccc(O)cc1)NCc1cc2ccccc2nc1SC,Pseudomonas aeruginosa,,,"8 µg/mL, without pentamidine",relative to: control,growth,97.2%
CC1(F)CN(C(=O)Cn2c(=O)c(C(=O)NCc3ccc(Cl)cc3)cc3nc(N4CCNC4=O)cnc32)C1,human cytomegalovirus,"viral replication, GFP reporter","MRC-5, AD169-GFP",,,EC50,218 nM
CC(=Nc1ccc(N=Cc2c[nH]cn2)cc1)N(C)C,Necator americanus,,infected hamsters,"oral, 50 mg/kg single",relative to: untreated,worm burden reduction,100%
Cc1nc(NCCCCNc2ccnc3cc(Cl)ccc23)nc(-c2ccccc2[N+](=O)[O-])c1C(=O)OC(C)C,human cytomegalovirus,viral replication,"HEL, AD-169",,,EC50,> 4000 nM
N=C(N)c1ccc(OCc2ccc(Br)cc2COc2ccc(C(=N)N)cc2)cc1,Escherichia coli,checkerboard,mcr-2 polymyxin-resistant,"concentration not given, 20 h, together with: rifampicin",,MIC of compound in combination,6.25 µg/mL
CCc1nn(C)c2nc(-c3ccc(C(=O)O)cc3)nc(NCc3ccc(F)cc3)c12,Cryptosporidium parvum,,HCT-8,"EC50, 24 h",relative to: DMSO control,parasite number,37.1% and 35.6% and 45.5% and 39.9%
CC(=Nc1ccc(N=Cc2ccc3[nH]cnc3c2)cc1)N(C)C,Necator americanus,,infected hamsters,"oral, 25 mg/kg single dose, 49 days post infection",,worm burden reduction,100%
COC(=O)[C@@H](CCSC)NCc1cc2ccccc2nc1SC,Pseudomonas aeruginosa,,,"4 µg/mL, together with: pentamidine 50 µM",relative to: control,growth,101%
CC1(F)CN(C(=O)Cn2c(=O)c(C(=O)NCc3ccc(Cl)cc3)cc3nccnc32)C1,human cytomegalovirus,"viral replication, GFP reporter","MRC-5, AD169-GFP",,,EC50,3760 nM
CC(=O)NC[C@H]1CN(c2ccc(N3CCOCC3)c(F)c2)C(=O)O1,Streptococcus pneumoniae,,"-4, penicillin-resistant, mouse systemic infection",intravenous,survival,ED50,19.7 mg/kg
NCC[C@H](O)C(=O)N[C@@H]1C[C@H](N)[C@@H](O[C@H]2O[C@H](CN)[C@@H](O)[C@H](O)[C@H]2O)[C@H](O)[C@H]1O[C@H]1O[C@H](CO)[C@@H](O)[C@H](N)[C@H]1O,Mycobacterium avium,resazurin microtitre,104,"4 days, 37 °C",,MIC50,3.1 µM
FC(F)(F)c1cccc(N2CCN(Cn3nc(COc4ccccc4)n(-c4ccccc4)c3=S)CC2)c1,Lytechinus pictus,fluo-3,egg homogenate,"6 to 125 µM, together with: NAADP 30 to 50 nM",,NAADP Ca2+ release antagonism,toxic
Cc1ccc(CCC(=O)Nc2nnc(S(N)(=O)=O)s2)cc1,Bifidobacterium longum,,HM-847,,,MIC,> 784 µM
Cc1ccc(NC(=O)N2Cc3[nH]cnc3C[C@H]2c2nc(-c3ccc4c(c3)OCO4)no2)cc1,Caenorhabditis elegans,,N2,3.125 µM,,mean lifespan,21.2 days
Nc1nc(O)c2ncn(COC(CO)CO)c2n1,Human betaherpesvirus 5,"viral replication, virus yield reduction","HFF, AD169",,,EC90,2110 nM
N=C(N)c1ccc(OCc2ccccc2COc2ccc(C(=N)N)cc2)cc1,Escherichia coli,,BW25113,"concentration not given, lowest-FICI combination, together with: rifampicin",,MIC in combination,25 µg/mL
CC1(F)CN(C(=O)Cn2c(=O)c(C(=O)NCc3ccc(Cl)cc3)cc3nc(N4CCOC4=O)cnc32)C1,human cytomegalovirus,"viral replication, GFP reporter","MRC-5, AD169-GFP",,,EC50,290 nM
N=C(N)c1ccc(OCc2cc(Br)cc(COc3ccc(C(=N)N)cc3)c2)cc1,Escherichia coli,checkerboard,mcr-1 polymyxin-resistant,"concentration not given, 20 h, together with: rifampicin",,MIC of compound in combination,6.25 µg/mL
COC(=O)[C@H](Cc1c[nH]c2ccccc12)NCc1cc2ccccc2nc1OC,Pseudomonas aeruginosa,,,"32 µg/mL, without pentamidine",relative to: control,growth,90.7%
CC(=Nc1ccc(N=Cc2cnc3ccccc3n2)cc1)N(C)C,Necator americanus,,infected hamsters,"oral, 50 mg/kg single",relative to: untreated,worm burden reduction,88.9 ± 4.2%
COc1cnc2c(cc(C(=O)NCc3ccc(Cl)cc3)c(=O)n2CC(=O)N2CC(C)(F)C2)n1,human cytomegalovirus,"viral replication, GFP reporter","MRC-5, AD169-GFP",,,EC50,377 nM
CC(C)n1ncc2c(C(=O)NCC3(C)CNC3)cc(C3CC3)nc21,Enterovirus D68,cytopathic effect,"RD, US/KY/14-18953",500 nM,,cell protection,96.8% and 93.7% and 95.2%
Nc1nc(-c2ccccc2)nc2[nH]nc(Nc3ccc(C(F)(F)F)cc3)c12,coxsackievirus B3,,"31-1-93, NMRI mice, CVB3 chronic myocarditis","oral, 100 mg/kg twice daily, day 2, dosed days 3 to 10, score scale 0 to 7",direction not given,clinical score,0.1
Cc1nc(NCCNc2ccnc3cc(Cl)ccc23)nc(-c2ccccc2[N+](=O)[O-])c1C(=O)OC(C)C,human cytomegalovirus,viral replication,"HEL, Davis",,,EC50,> 20000 nM
Cc1cc(OC(C)C)ccc1C(=O)C(C)(C)NC(=O)c1sccc1C,Botrytis cinerea,mycelial growth,PSA medium,20 °C,,EC50,0.1 µg/mL
COC(=O)[C@@H](NCc1cc2ccccc2nc1OCc1ccccc1)C(C)C,Pseudomonas aeruginosa,,,"32 µg/mL, together with: pentamidine 100 µM",relative to: control,growth,95.3%
Cc1ccc(-c2nc(C#N)c(N(C)S(=O)(=O)c3ccc(C)cc3)o2)cc1,human cytomegalovirus,viral replication,"HFF, AD169",,,EC50,1070 nM

# For quick reference, copied from above:
Structure (SMILES),organism,assay,test system,conditions,scale,measurement,result
Cc1cc(Nc2ccc(S(F)(F)(F)(F)F)cc2)n2nc(C(C)(F)F)nc2n1,Plasmodium falciparum,microscopy,human malaria patients,"250 mg, mean",,lag phase (Tlag),12.6 h
CN[C@H](CC(C)C)C(=O)N[C@H]1C(=O)N[C@@H](CC(N)=O)C(=O)N[C@H]2C(=O)N[C@H]3C(=O)N[C@H](C(=O)N[C@H](C(=O)O)c4cc(O)cc(O)c4-c4cc3ccc4O)[C@H](O)c3ccc(c(Cl)c3)Oc3cc2cc(c3O[C@@H]2O[C@H](CO)[C@@H](O)[C@H](O)[C@H]2O[C@H]2C[C@](C)(N)[C@H](O)[C@H](C)O2)Oc2ccc(cc2Cl)[C@H]1O,Streptococcus pneumoniae,,"-4, penicillin-resistant, mouse systemic infection",intravenous,survival,ED50,21.1 mg/kg
CN[C@H](CC(C)C)C(=O)N[C@H]1C(=O)N[C@@H](CC(N)=O)C(=O)N[C@H]2C(=O)N[C@H]3C(=O)N[C@H](C(=O)N[C@H](C(=O)O)c4cc(O)cc(O)c4-c4cc3ccc4O)[C@H](O)c3ccc(c(Cl)c3)Oc3cc2cc(c3O[C@@H]2O[C@H](CO)[C@@H](O)[C@H](O)[C@H]2O[C@H]2C[C@](C)(N)[C@H](O)[C@H](C)O2)Oc2ccc(cc2Cl)[C@H]1O,Staphylococcus epidermidis,,"9397, female ICR mice, peritonitis, peritoneal fluid",dose not given,,bacterial load,4 log CFU and 6.21 log CFU and 5.76 log CFU and 4.92 log CFU and 3.52 log CFU
COC(=O)[C@H](Cc1c[nH]c2ccccc12)NCc1cc2ccccc2nc1SC,Pseudomonas aeruginosa,,,"128 µg/mL, together with: pentamidine 100 µM",relative to: control,growth,58.6%
CC(=Nc1ccc(N=Cc2ccc[nH]2)cc1)N(C)C,Necator americanus,,infected hamsters,"oral, 25 mg/kg single dose, 49 days post infection",,worm burden reduction,100%
O=S(=O)(c1ccc(Cl)cc1)c1nc(-c2ccccc2)oc1S(=O)(=O)c1ccc(Cl)cc1,human cytomegalovirus,viral replication,"HFF, AD169",,,EC50,140 nM
COC(=O)[C@H](Cc1ccc(O)cc1)NCc1cc2ccccc2nc1SC,Pseudomonas aeruginosa,,,"8 µg/mL, without pentamidine",relative to: control,growth,97.2%
